Measurements gathered from unrelated publications.
Each numbered part is a random draw from the data of one study; scales do not carry over between parts.

Block 1
Target: RING finger protein unkempt homolog, zinc fingers 1-6, GST-SBP tag (UNK, Homo sapiens, UniProt Q9C0B0, residues 30-357)
Sequence of UniProt Q9C0B0 (30-357, looked up): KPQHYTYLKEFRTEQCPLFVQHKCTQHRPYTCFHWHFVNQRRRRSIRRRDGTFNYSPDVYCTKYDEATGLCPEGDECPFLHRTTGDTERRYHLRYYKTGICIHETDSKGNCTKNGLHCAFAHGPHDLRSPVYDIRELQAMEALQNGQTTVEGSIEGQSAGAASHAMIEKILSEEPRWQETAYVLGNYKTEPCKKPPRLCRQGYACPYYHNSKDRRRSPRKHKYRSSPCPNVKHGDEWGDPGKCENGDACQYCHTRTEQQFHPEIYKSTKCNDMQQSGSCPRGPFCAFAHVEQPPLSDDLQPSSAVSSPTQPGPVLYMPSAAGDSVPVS
Technique: RNA Bind-n-Seq
Form: RNA
Medium: in vitro
Tested at: not given
Notes: RNA with constant flanks, human and mouse sites, ends assumed
Relative to: input RNA pool
Reading: higher = stronger binding
Strand | bound/input enrichment [ratio]
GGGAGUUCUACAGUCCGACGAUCUCACUACUUUCUGUGGAACAGAAAAGCAAAGCGCUAUUCUAAUCAGCAAGUGAUGGCAUCACUGAGCUUCAACUCCACGUGUGUGACUAUAAAACACCCUGUGGCCAAGAGCAGAUUGCCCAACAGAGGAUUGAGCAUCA | 0.2
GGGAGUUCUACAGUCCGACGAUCAGCAAAAAAGCAGAAAUCCCAAUUAACAAGACACACAAGCAACAGUUUAAUAAACUCAUUACCAGCCAGGCUGCGCAAGUUACAACUCAUUCUAAAAAUGCUUCACUCGGGGUUCCAAGACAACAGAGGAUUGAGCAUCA | 0.354
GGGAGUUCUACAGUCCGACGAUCAAGGAUUAAGCCUGAGAACUGUGUAAAUCAUUAAGCUAUGCUCUUUGUGUAUGGAGGUUGCAAAAAAAGGCACCUCCUUUAGACUGAAUCUUUUGUGCUGAAAUUUUUCUUACAUGAUGACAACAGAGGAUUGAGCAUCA | 0.203
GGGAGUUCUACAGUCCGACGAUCUGCACUCUUCUGUUCAUUCUGACCCCUUCCUCAACCUCUUCACGCUGGCAUGUCCUUUUGUAGCAGUCUGUAACUUAACUAUAGUAUAAUGAAAAGAAUGACCUAUAAUAUAGGUGUUUUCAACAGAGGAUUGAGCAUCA | 4.73
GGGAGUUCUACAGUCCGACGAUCUUCCAGUCAUCUACCGCCCUUUUGUGUUCACCUCUUUUACCCUCCAAUCAACUUCCCAGGUUAGCCCAUCAGUCUGCCAUCUGUCCCUCUGCCCACUGAUCCAUCCAUGUAUGCCCUUGCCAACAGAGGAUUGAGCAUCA | 0.646
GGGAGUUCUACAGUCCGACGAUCAGUACGCGAGAGCGGCUUCUGUCUGCGCUGGAAGAUCUGGAGGUCUUGUCGAGGGAACUCAUAGAAAUGCUUGCAAUUUCAAGAAAUCAGAAGCUAUUACAGCUGGAAGAGGAAAACCAGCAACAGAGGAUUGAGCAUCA | 0.286
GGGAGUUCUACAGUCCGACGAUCCUUCUGUUUGUAAGGAUGAUUUUAAUAUUAAUUCCAGGAACACAUGUUUUUAUUUCCUCUGCUGGAAUAGGAGAAAGCUUAAUAUAUUCCCAAGCUGAAUGUUCUUGAAUUAUAUCUGCACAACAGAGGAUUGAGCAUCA | 0.242
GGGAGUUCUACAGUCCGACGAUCGAAGAACGAGACCGAAGAGAAAGCAAGAAGAUUGCGGAUGAAGAUGCCCUGCGGCGGAUCCGGCAGGCAGAAGAGCAGAUUGAACACUUGCAACGCAAAUUGGGUGCCACCAAGCAGGAGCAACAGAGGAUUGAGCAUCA | 0.21

Block 2
Target: Fragile X messenger ribonucleoprotein 1, C-terminal low-complexity region (Fmr1, Mus musculus, UniProt P35922)
Technique: RNA Bind-n-Seq
Form: RNA
Medium: in vitro
Tested at: 200 nM
Notes: whole 134-nt RNA, ends assumed
Together with: 150 mM KCl
Relative to: input library
Reading: higher = stronger binding
Strand | log2 enrichment
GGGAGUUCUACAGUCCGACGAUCAAGUCCUGUGCUACACAUCGUAUGUACCGAAUCGGGGCCCCGGCCCCGGGGCCCCGGAAAGUAUUAUGUUACGCCGUUCGGAUCUGCACUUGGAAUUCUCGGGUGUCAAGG | -0.979
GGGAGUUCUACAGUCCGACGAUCUCCGCACACCCGGCCUGUCACCCUGCUUUCCCUGCCUCUACUUGACUUGGAAUUGGCUGAAGACUACACAGGAAUGCAUCGUUCCCACUCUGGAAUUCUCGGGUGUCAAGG | 0.722
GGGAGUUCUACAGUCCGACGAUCCCUGUGCUACACAUCGUAUGUACCGAAUCGGGGUUUUUUUGGGGUUUGGGGAAAAAGGGGAAAGUAUUAUGUUACGCCGUUCGGAUCUGCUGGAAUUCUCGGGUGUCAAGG | 0.246
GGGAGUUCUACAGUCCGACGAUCUUCGACGAAACAAUUCGAAAGCCCAUCAGUUUGGGUUGUGGCCAUACUGUCUGCAAGAUGUGCCUGAAUAAACUCCACCGCAAGGCUUGCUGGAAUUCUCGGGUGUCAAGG | 0.169
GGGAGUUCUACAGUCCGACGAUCCAAGUCCUGUGCUACACAUCGUAUGUACCGAAUCGGGUGGGAGGGAAAAAAAGGGAAAGUAUUAUGUUACGCCGUUCGGAUCUGCACUUCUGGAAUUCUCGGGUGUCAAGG | 0.429
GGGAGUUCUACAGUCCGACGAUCUCCUGUGCUACACAUCGUAUGUACCGAAUCGGGCCCCCCGGCCCCCCGGGGCCCCCCGGAAAGUAUUAUGUUACGCCGUUCGGAUCUGCAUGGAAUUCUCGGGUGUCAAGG | 0.147
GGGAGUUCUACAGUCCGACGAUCUCAAGUCCUGUGCUACACAUCGUAUGUACCGAAUCGGAAAAAGGAAAAAGGUGGAAAGUAUUAUGUUACGCCGUUCGGAUCUGCACUUCCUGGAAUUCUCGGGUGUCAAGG | -0.521
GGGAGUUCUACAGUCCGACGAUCUGUAUCCCUGUUUCUUUUCUCCCUACAGAAACAUAUGAGGAUUUUGAUACCAGGAUACUUGAGGUAGGCAUGCAGAAUUAAAUACCUGGUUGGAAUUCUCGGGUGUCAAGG | 0.26
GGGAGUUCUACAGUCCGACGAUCCAAGUCCUGUGCUACACAUCGUAUGUACCGAAUCGGGCCCGGGCCCGGCCCGGGGAAAGUAUUAUGUUACGCCGUUCGGAUCUGCACUUCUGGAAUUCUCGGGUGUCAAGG | -0.726

Block 3
Target: RNA binding protein fox-1 homolog 2, RRM domain, GST-SBP tag (RBFOX2, Homo sapiens, UniProt O43251-10, residues 100-194)
Technique: RNA Bind-n-Seq
Form: RNA
Medium: in vitro
Tested at: 365 nM
Notes: natural RNA segment, single round, ends assumed
Relative to: no-protein control
Reading: higher = stronger binding
Residues (chain): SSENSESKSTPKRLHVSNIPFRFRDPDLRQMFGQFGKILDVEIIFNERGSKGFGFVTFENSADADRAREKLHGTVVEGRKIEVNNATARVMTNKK
Strand | RBNS enrichment (R)
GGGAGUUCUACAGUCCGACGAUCAGCCUCCUUACAUUAAAAAGCCUUACAGUUAUCCUGCAAGGGACAGGAAGGUCUGAUUUGCAGGAUUUUUAGAGCAUUAAAAUAACUAUCAGGCAGAAGAAUCUUUCUUCUGGAAUUCUCGGGUGCCAA | 0.544
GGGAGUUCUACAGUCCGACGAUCUCACUUAAACCUCCUGUGCCUCGAUUUCCCCCUUCUACAAAGUGGGGCCAAUGAUUCUUGUGUGUCAGCACUGUUACUACCGAGUGCUGAGUAAGGGCAAAAUAAUACCCUGGAAUUCUCGGGUGCCAA | 0.59
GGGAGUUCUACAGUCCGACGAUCGGAAAAACUACAAAACAGACACAACAAACCAGAGCCAAGUUUGGGGAACGGGUGUGAGCAGCUCUGGCUCCUGACCCUCACCGGGUCCGCUUUGCCCCAGUGAAGAGACAUGGAAUUCUCGGGUGCCAA | 0.553
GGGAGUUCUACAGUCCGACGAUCACACGUUACUCCAGCGCUACUCUUGCCAUUACGCCCCGUGUUUCCGAGCACAGCUGGUCCUACCCCAAGUCAUGGUGUGCUGAGUGACUGACUGAGGGGCCAUUGAGAGCUGGAAUUCUCGGGUGCCAA | 0.72
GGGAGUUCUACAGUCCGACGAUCCUGGCCUCUGGGGUCAUACUCACUUCUUUAGCCAGCCCCAUCCCCUCCACCCCACACCUGAGUUCUUGCCUCCUCCUUUUGGGGACACCCAAAACACUGCUUGUGAGAAGUGGAAUUCUCGGGUGCCAA | 0.706
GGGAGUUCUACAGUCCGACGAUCCCCUCCACGCGCUGAUCGAUACUCUGCCUGUGUCCACUCAACUCAGAUUACAAACAGCUCUCUCUGCUGUCUGUGUCCCUUGUGAUACACUUAAACACACUGUCCAAAGAUGGAAUUCUCGGGUGCCAA | 0.347
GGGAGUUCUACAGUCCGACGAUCGUUGUUUUGUUUCCUUCGCCCUUUUCUUCUCUGUGUAAAGGCGAUUCCCUAGACCCAGGAUGGACCCUUCAGUUAUAGAAAUUUGUUUAUGGAACCCGGUGGCUCCCGUCUGGAAUUCUCGGGUGCCAA | 0.47
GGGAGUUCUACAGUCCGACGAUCUAAAUGUGGAUUUUGUAGAUGUUAGGGUAUAAGUUGCUGUAAAAUUUGUGUAAAUUUGUAUCCACACAAAUUCAGUCUCUGAAUACACAGUAUUCAGAGUCUCUGAUACAUGGAAUUCUCGGGUGCCAA | 0.415

Block 4
Target: Centromere-binding protein 1, full length, His-tagged (CBF1, Saccharomyces cerevisiae, UniProt P17106, residues 1-351)
Sequence of UniProt P17106 (whole entry, looked up): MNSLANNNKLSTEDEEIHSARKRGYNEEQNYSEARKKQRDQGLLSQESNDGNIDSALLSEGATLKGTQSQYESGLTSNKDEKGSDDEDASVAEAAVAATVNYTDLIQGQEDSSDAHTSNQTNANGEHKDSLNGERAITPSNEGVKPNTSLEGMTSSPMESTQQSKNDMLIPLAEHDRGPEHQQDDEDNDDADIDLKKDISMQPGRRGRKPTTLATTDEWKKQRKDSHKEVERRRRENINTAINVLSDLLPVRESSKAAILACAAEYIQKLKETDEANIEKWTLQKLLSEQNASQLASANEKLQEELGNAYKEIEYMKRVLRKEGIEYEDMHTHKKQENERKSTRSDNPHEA
Technique: competition protein-binding microarray
Form: double-stranded DNA, one strand shown
Medium: in vitro
Tested at: 2 µM
Notes: whole 60-bp probe, lowest competitor level
Together with: Pho4 competitor, 0.05 µM
Reading: higher = stronger binding
Strand | fluorescence intensity
AAAGCGGTAATTTGACCTGTGGGTGCAGATATCTATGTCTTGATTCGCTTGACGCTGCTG | 75.9 a.u.
GGTTGTGGAGCATTCAGCGTGATGGCAAAAGGTGTTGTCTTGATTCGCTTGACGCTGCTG | 128 a.u.
CGACTTGCGAGAAGACACGTGCGCGGAAGGAGCTTGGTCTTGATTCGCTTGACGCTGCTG | 1110 a.u.
CCGGTAATGGCGGAGCATGTGATGGAGGAATGGGCGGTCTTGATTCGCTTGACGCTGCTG | 347 a.u.
CCCATAGATTGCGGGCACATGGCGCAGTTGGTAGCGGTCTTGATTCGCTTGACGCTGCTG | 98.2 a.u.
CTGGGGATGTTTCCGCACATGAGGGGGGCAGAGGTTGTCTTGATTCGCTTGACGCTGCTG | 176 a.u.
CTAACGAAGGTTTGGCTAGTGGGTGACAAGCCAAGTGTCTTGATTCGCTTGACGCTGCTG | 68 a.u.
CTTCTGTAAATTTGTCACATTACTTGACGCGCCCCGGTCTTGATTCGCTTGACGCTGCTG | 136 a.u.
AGCTACGGAAACCGTCACACTTTTTTTCTGCAAGAAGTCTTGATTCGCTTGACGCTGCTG | 95.4 a.u.
TTTGTGGTTTTCAGCCGCGTGTATACCTTCAGCTTGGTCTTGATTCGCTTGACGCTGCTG | 76.8 a.u.
GTCTTGTCTCATTTTCACGTGGCATTCCCCACTTCAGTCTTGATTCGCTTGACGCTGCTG | 689 a.u.
CGATTTCAGAATCACCACGGGATTGCCAACCCAACAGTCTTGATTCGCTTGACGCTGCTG | 151 a.u.
GTGACGAAAACGGATGCCATGTTCCAGCACCAACTGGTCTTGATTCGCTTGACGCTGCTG | 79.5 a.u.
AAATTACTAAGTTTTCACGTGCAGTACCCCGTATGAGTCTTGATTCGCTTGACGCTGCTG | 831 a.u.
TCCCATGCAAACAAGCATGTGATATCATTGCCAAGTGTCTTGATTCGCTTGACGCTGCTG | 737 a.u.
CGGGGTTAAGTTTGCGGTGTGGGTGGCTTGCAGCAGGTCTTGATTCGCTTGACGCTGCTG | 64 a.u.
TGCGCAACAACTTGATTTGTGGGTGTATGTCTAGAAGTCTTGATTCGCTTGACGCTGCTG | 72.2 a.u.
CTAACGAAGGTTTGTTCGGTGGGTGACAAGCCAAGTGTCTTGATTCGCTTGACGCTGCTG | 67.3 a.u.
AAGTCAAAACACCGTCACACGAAAACCATAACCTGTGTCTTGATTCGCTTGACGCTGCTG | 92.9 a.u.

Repeated from above (block 4):
Strand | fluorescence intensity
CCCATAGATTGCGGGCACATGGCGCAGTTGGTAGCGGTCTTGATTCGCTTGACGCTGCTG | 98.2 a.u.
CTGGGGATGTTTCCGCACATGAGGGGGGCAGAGGTTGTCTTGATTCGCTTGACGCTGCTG | 176 a.u.
CTAACGAAGGTTTGGCTAGTGGGTGACAAGCCAAGTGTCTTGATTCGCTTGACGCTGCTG | 68 a.u.
